Assay results of several laboratories.
Compare with care: the assays were run in different laboratories. “And” joins repeats or separate records; there may be more than shown.

For `O=c1cc(/C=C/c2ccc(N3CCCC3)cc2)oc(/C=C/c2ccc(N3CCCC3)cc2)c1`, “absorption bathochromic shift” read 2560 cm⁻¹ (UV-vis; nanoparticles in aqueous acetonitrile; baseline: acetonitrile solution).
`CCCCN1C(=O)c2cccc3c(NCCCCN4CCOCC4)ccc(c23)C1=O` gave an absorption maximum of 429 nm (chloroform).
`CC(C)(C)NC(=O)C1CCN(Cc2cccc(/N=N/c3ccc(F)c(F)c3F)c2)CC1` — result for “absorption maximum, trans isomer”: 332 nm (DMSO; 25 µM, 25 °C).
`CCC1=[N+]2N=C(/C=C/c3ccccc3)C(=O)O[B-]2(c2ccccc2)Oc2cc(N(CC)CC)ccc21` (stereo not shown) gave an absorption maximum of 497 nm (toluene).
Under “absorption maximum wavelength”, `CC1(C)C(=CC=C2CCCC(C=CC3=[N+](CCC[N+](C)(C)C)c4ccc(S(=O)(=O)O)cc4C3(C)C)=C2SCCOCCOCCC(=O)O)N(CCC[N+](C)(C)C)c2ccc(S(=O)(=O)O)cc21` is recorded as 806 nm (DMSO).
`CCCCN1C(=O)c2cccc3c(NCCCCCCCCCCN4CCOCC4)ccc(c23)C1=O` gave an absorption maximum of 444 nm (DMSO).
For `CC(C)(C)NC(=O)C1CCN(Cc2cccc(N=Nc3ccc(F)cc3)c2)CC1`, “absorption maximum, cis isomer” read 437 nm (DMSO; 25 µM, 25 °C).
With `CCN(CC)c1ccc2c(c1)O[B-]1(c3ccccc3)OC(=O)C(c3ccccc3)=N[N+]1=C2C(C)C` (stereo not shown) the absorption maximum was 474 nm (toluene).
`CCCCN1C(=O)c2cccc3c(NCCCCCCN4CCOCC4)ccc(c23)C1=O` gave an absorption maximum of 427 nm (dichloromethane).
`C=Cc1ccccc1[B-]12OC(=O)C(c3ccccc3)=N[N+]1=Cc1ccc(N(CC)CC)cc1O2` (stereo not shown) has an absorption maximum of 470 nm (toluene).
`CC(C)(C)NC(=O)C1CCN(Cc2cccc(/N=N/c3ccc(F)cc3F)c2)CC1` — result for “absorption maximum, trans isomer”: 334 nm (DMSO; 25 µM, 25 °C).
`CCCCN1C(=O)c2cccc3c(NCCCN4CCOCC4)ccc(c23)C1=O` gave an absorption maximum of 443 nm (DMSO).
`COc1ccc2c(c1)O[B-]1(c3ccccc3)OC(=O)C(c3ccccc3)=N[N+]1=C2C` (stereo not shown) gave an absorption maximum of 423 nm (toluene).
`CCCCN1C(=O)c2cccc3c(NCCCCCN4CCOCC4)ccc(c23)C1=O` gave an absorption maximum of 445 nm (DMSO).
The absorption half-life of `C=C[C@]1(C)C[C@@H](OC(=O)CSc2ccc(NC(=O)c3ccco3)cc2)[C@]2(C)[C@H](C)CC[C@]3(CCC(=O)[C@H]32)[C@@H](C)[C@@H]1O` is reported as 7.46 min and 7.2 min (M. gallisepticum-infected chickens, plasma; intramuscular, 40 mg/kg single dose).
For `CCC1=[N+]2N=C(c3ccccc3)C(=O)O[B-]2(c2ccccc2)Oc2cc(N(CC)CC)ccc21` (stereo not shown), the absorption maximum was 472 nm (toluene).

Some of these lines once more:
`CC(C)(C)NC(=O)C1CCN(Cc2cccc(/N=N/c3ccc(F)cc3F)c2)CC1` — result for “absorption maximum, trans isomer”: 334 nm (DMSO; 25 µM, 25 °C).
`CCCCN1C(=O)c2cccc3c(NCCCN4CCOCC4)ccc(c23)C1=O` gave an absorption maximum of 443 nm (DMSO).
